Published values collected from several papers.
Every numbered part comes from another study and shows a few of its results, in no order. Several values in a cell are separate wells, animals, samples, runs or records.
UniProt Q16816, sequence (whole entry, looked up): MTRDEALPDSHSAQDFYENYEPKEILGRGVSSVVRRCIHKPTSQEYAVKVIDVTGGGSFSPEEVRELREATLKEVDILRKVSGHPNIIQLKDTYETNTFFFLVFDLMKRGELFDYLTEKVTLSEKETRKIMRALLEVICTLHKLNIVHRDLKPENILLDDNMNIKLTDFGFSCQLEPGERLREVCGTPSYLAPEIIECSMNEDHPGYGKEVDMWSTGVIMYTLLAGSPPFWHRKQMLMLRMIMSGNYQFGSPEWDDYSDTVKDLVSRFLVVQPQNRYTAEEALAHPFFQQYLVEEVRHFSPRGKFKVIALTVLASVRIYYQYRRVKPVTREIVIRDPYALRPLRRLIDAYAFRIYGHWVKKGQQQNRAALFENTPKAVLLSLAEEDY
UniProt Q9UK32, sequence (whole entry, looked up): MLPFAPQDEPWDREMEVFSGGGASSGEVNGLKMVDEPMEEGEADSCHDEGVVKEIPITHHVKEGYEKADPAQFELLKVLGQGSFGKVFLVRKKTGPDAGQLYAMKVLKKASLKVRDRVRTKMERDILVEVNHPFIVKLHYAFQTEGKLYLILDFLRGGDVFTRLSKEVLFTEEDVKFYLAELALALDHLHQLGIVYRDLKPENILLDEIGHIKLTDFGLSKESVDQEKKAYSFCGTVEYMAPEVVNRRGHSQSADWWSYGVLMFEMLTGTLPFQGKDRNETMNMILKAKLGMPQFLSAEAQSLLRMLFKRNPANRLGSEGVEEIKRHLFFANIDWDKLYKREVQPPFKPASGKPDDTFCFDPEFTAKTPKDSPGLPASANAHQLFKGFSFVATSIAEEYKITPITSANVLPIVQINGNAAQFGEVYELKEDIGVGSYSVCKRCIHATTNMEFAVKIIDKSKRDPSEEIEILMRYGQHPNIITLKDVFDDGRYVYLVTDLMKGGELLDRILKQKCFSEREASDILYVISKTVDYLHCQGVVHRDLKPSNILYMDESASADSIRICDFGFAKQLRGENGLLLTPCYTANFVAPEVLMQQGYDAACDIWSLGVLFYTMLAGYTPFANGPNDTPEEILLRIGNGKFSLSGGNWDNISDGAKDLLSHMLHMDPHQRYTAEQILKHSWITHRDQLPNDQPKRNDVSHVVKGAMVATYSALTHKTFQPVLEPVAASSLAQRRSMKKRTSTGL
UniProt Q9H3Y6, sequence (whole entry, looked up): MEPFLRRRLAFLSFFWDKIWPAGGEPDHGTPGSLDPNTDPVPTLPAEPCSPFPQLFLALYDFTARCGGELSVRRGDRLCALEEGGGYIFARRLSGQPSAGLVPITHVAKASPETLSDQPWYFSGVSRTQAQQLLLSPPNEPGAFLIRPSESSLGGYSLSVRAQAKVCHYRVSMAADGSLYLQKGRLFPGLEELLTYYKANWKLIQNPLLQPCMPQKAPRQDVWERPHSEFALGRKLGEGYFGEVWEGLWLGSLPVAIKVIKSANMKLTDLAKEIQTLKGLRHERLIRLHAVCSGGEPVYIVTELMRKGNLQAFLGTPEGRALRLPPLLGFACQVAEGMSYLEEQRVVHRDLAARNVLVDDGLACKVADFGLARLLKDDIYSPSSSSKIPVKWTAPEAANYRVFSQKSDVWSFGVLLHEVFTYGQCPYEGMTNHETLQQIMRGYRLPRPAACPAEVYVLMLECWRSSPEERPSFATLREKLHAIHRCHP
UniProt Q9UEE5, sequence (whole entry, looked up): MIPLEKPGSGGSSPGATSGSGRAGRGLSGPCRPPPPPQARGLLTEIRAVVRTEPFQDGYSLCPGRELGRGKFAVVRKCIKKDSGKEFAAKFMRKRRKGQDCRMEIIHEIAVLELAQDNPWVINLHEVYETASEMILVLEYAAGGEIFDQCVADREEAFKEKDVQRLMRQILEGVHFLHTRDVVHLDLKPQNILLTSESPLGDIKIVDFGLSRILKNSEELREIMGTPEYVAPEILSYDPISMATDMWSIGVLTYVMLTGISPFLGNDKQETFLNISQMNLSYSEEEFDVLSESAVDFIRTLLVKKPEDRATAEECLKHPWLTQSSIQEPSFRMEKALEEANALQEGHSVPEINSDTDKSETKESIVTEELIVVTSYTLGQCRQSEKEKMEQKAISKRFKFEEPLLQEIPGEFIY
UniProt O75716, sequence (whole entry, looked up): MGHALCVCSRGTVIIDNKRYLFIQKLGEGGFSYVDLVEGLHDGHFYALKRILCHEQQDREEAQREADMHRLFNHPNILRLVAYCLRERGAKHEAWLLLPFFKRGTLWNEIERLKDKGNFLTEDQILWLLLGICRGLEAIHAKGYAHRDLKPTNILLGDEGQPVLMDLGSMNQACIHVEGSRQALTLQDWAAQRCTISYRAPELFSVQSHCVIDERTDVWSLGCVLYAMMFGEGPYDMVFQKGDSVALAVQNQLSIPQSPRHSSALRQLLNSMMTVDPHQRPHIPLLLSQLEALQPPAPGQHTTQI

Block 1 — observed: peptide-MHC binding; form: peptide; reading: direction not given
Target: HLA class I histocompatibility antigen, A alpha chain, allele A*80:01 (Homo sapiens, UniProt P04439)
Molecule	z-score of log IC50
FTFDLTALK	0.38
FTARIIIFS	0.38
FPDGKPFTL	0.38
FQAGWEDPT	0.38
DEQEFFYSQ	0.38
AFHQLVQVI	0.38
AHYEEDVNL	0.38
ATKDSFQSF	0.38

Block 2 — observed: enzyme activity; action: inhibitor; concentration: 0.5 µM; baseline: control
Structure (SMILES): CN[C@@H]1C[C@H]2O[C@@](C)([C@@H]1OC)n1c3ccccc3c3c4c(c5c6ccccc6n2c5c31)C(=O)NC4
target	remaining activity
Serine/threonine-protein kinase 17A (STK17A, Homo sapiens, UniProt Q9UEE5)	62.9%
Phosphorylase b kinase gamma catalytic chain, skeletal muscle/heart isoform (PHKG1, Homo sapiens, UniProt Q16816)	2.34% and 1.43%
Tyrosine-protein kinase Srms (SRMS, Homo sapiens, UniProt Q9H3Y6)	97.6%
Serine/threonine-protein kinase 16 (STK16, Homo sapiens, UniProt O75716)	47.9%
Ribosomal protein S6 kinase alpha-6 (RPS6KA6, Homo sapiens, UniProt Q9UK32)	1.15% and 1.67%

Other studies, line by line
Structure (SMILES)	tested on	assay	system	setting	scale	endpoint	result
Cc1cc(NC(=O)c2cccc(S(F)(F)(F)(F)F)c2)cc(-n2ccn3nc(-c4cccnc4)cc23)c1	normal organoid sample H	CellTiter-Glo	human	1 µM, 4 days	baseline: DMSO	viability	82% and 85.4%
CC(C)n1cnc(-c2ccc(F)cc2)c1-c1ncc(C(=O)Nc2ccc(N3CCN(C)CC3)cc2)[nH]1			human, idiopathic pulmonary fibrosis	30 mg twice daily, trial, without standard of care		serious AEs resulting in death	10%
CC[C@@]1([C@@H]2O[C@@H]([C@H]3O[C@@](O)(CO)[C@H](C)C[C@@H]3C)C[C@@H]2C)CC[C@H]([C@]2(C)CC[C@]3(C[C@H](O)[C@@H](C)[C@@H]([C@@H](C)[C@@H](OC)[C@H](C)C(=O)O)O3)O2)O1	mouse MPNST tumor cells	high-content immunofluorescence imaging, item: nuclear SOX9		10 µM, 12 h, mean of 2 replicates	baseline: DMSO control, higher = more nuclear SOX9	nuclear SOX9 intensity	112 % of DMSO

Some of these lines once more (block 1):
Molecule	z-score of log IC50
AFHQLVQVI	0.38
AHYEEDVNL	0.38
